Assay results gathered from unrelated publications.
Compare with care: the assays were run in different laboratories. Several values in a cell are separate wells, animals, samples, runs or records. ± marks the error that the study gave.

Structure (SMILES)	test	test system	conditions	how to read	endpoint	result
CC(C)=CCC/C(C)=C/CCn1cc(CC(P(=O)(O)O)P(=O)(O)O)nn1	qRT-PCR, item: Slco2a1 and Slc10a1	CD-1 mice, liver	intravenous, 0.3 mg/kg	baseline: control	mRNA level	increased
C[C@H](O)[C@@H](NC(=O)[C@H]1CCCN1C(=O)[C@@H](CCCCN)NC(=O)[C@@H](CO)NC(=O)[C@@H](Cc1ccc(O)cc1)NC(=O)[C@@H](CC(N)=O)NC(=O)CCOCCOCCOCCNC(=O)CN1CCN(CC(=O)O)CCN(CC(=O)O)CCN(CC(=O)O)CC1)C(=O)N[C@H](CC(=O)O)C(=O)N[C@H](CCCNC(=N)N)C(=O)N[C@H](CCC(N)=O)C(=O)N[C@H](Cc1ccc(O)cc1)C(=O)N[C@H](Cc1c[nH]cn1)C(=O)N[C@H](Cc1ccccc1)C(N)=O [copper-64 labelled]	–	C57BL/6J mice, kidney	intravenous, 1.85 MBq, 0.6667 h, radiolabelled	–	tissue uptake	29.3 ± 1.05 %ID/g
O=C1NC2(CC2)COc2ncc(F)cc2[C@H]2COCCN2c2ccn3ncc1c3n2	–	Sprague-Dawley rat, female, serum	oral, 2.5 mg/kg/day, 4 weeks daily, end of treatment	–	potassium	4 ± 0.17 mmol/L
CSCC[C@H](N)C(=O)N[C@@H](C)C(=O)N[C@@H](Cc1c[nH]c2ccccc12)C(=O)N[C@@H](Cc1c[nH]cn1)C(=O)N[C@@H](CC(=O)O)C(=O)N[C@@H](CC(=O)O)C(=O)N[C@@H](CCC(=O)O)C(=O)N[C@@H](CCC(=O)O)C(=O)N[C@@H](Cc1ccccc1)C(=O)N[C@@H](C)C(=O)N[C@@H](CCCNC(=N)N)C(=O)N[C@@H](CCCNC(=N)N)C(=O)N[C@@H](CCCNC(=N)N)C(=O)N[C@@H](CCCNC(=N)N)C(=O)NCCCCCC(=O)NCCCCC(NC(=O)CCCCCNC(=O)[C@H](CCCNC(=N)N)NC(=O)[C@H](CCCNC(=N)N)NC(=O)[C@H](CCCNC(=N)N)NC(=O)[C@H](CCCNC(=N)N)NC(=O)[C@H](C)NC(=O)[C@H](Cc1ccccc1)NC(=O)[C@H](CCC(=O)O)NC(=O)[C@H](CCC(=O)O)NC(=O)[C@H](CC(=O)O)NC(=O)[C@H](CC(=O)O)NC(=O)[C@H](Cc1c[nH]cn1)NC(=O)[C@H](Cc1c[nH]c2ccccc12)NC(=O)[C@H](C)NC(=O)[C@@H](N)CCSC)C(=O)NCCCCC(NC(=O)C(CCCCNC(=O)CCCCCNC(=O)[C@H](CCCNC(=N)N)NC(=O)[C@H](CCCNC(=N)N)NC(=O)[C@H](CCCNC(=N)N)NC(=O)[C@H](CCCNC(=N)N)NC(=O)[C@H](C)NC(=O)[C@H](Cc1ccccc1)NC(=O)[C@H](CCC(=O)O)NC(=O)[C@H](CCC(=O)O)NC(=O)[C@H](CC(=O)O)NC(=O)[C@H](CC(=O)O)NC(=O)[C@H](Cc1c[nH]cn1)NC(=O)[C@H](Cc1c[nH]c2ccccc12)NC(=O)[C@H](C)NC(=O)[C@@H](N)CCSC)NC(=O)CCCCCNC(=O)[C@H](CCCNC(=N)N)NC(=O)[C@H](CCCNC(=N)N)NC(=O)[C@H](CCCNC(=N)N)NC(=O)[C@H](CCCNC(=N)N)NC(=O)[C@H](C)NC(=O)[C@H](Cc1ccccc1)NC(=O)[C@H](CCC(=O)O)NC(=O)[C@H](CCC(=O)O)NC(=O)[C@H](CC(=O)O)NC(=O)[C@H](CC(=O)O)NC(=O)[C@H](Cc1c[nH]cn1)NC(=O)[C@H](Cc1c[nH]c2ccccc12)NC(=O)[C@H](C)NC(=O)[C@@H](N)CCSC)C(N)=O (stereo partly drawn)	–	C57BL/6 mouse female, pancreas	dose not given, 3 h	baseline: total	tissue distribution	0.93% and 0.99% and 1.51%
CC(CCC(=O)NCC(=O)O)C1CCC2C3C(O)CC4CC(OC5OC(C(=O)O)C(O)C(O)C5O)CCC4(C)C3CCC12C (stereo not drawn)	–	women, C/C genotype, plasma	dose not given, geometric mean	–	glucuronide to parent ratio	0.41
COc1nc(CC=C(C)CC=CC(C)=CC(C)C(OC2OC(CO)C(O)C(O)C2O)C(C)=CCO)c(C)c(O)c1OC (stereo not drawn)	–	male C57BL/6 mouse, plasma	intravenous, 2 mg/kg	–	MRT(0-t)	20.7 min
CC(C)C[C@@H](NC(=O)[C@@H](CCCNC(=N)N)NC(=O)[C@@H](Cc1c[nH]cn1)NC(=O)[C@@H](Cc1c[nH]c2ccccc12)NC(=O)[C@@H](Cc1c[nH]cn1)NC(=O)[C@@H](Cc1ccccc1)NC(=O)[C@H](NC(=O)[C@@H](Cc1ccc(O)cc1)NC(=O)CNC(=O)CNC(=O)CCOCCOCCOCCNC(=O)CN1CCN(CC(=O)O)CCN(CC(=O)O)CC1)[C@H](C)O)C(=O)N[C@H](CC(N)=O)C(=O)N1CCC[C@@H]1C(=O)O [gallium-68 labelled]	OLINDA/EXM	adult female human, heart wall	extrapolated from C57BL/6 mice	–	organ absorbed dose	0.0102 ± 0.00246 mSv/MBq
CCOc1ccccc1-n1c(CN2CCNCC2)nc2ccccc2c1=O	–	C57BL/6 mouse, male, plasma	oral, 6 mg/kg	–	apparent clearance CL/F	129 mL/min/kg
CC[C@H](C)[C@H](NC(=O)[C@H](CCCCN)NC(=O)CNC(=O)[C@H](CC(C)C)NC(=O)[C@H](Cc1ccccc1)NC(=O)[C@H](CCCCN)NC(=O)[C@H](CO)NC(=O)[C@H](Cc1ccccc1)NC(=O)[C@H](Cc1c[nH]c2ccccc12)NC(=O)[C@H](CCC(N)=O)NC(=O)[C@@H](NC(=O)[C@H](Cc1ccccc1)NC(=O)CCCCCNC(=O)CN1CCN(CC(=O)O)CCN(CC(=O)O)CCN(CC(=O)O)CC1)C(C)C)C(=O)N[C@@H](CCC(=O)O)C(=O)N1CCC[C@H]1C(=O)N[C@@H](CC(=O)O)C(=O)N[C@H](C(=O)N[C@@H](CO)C(=O)N[C@@H](CCC(N)=O)C(=O)N[C@H](C(=O)N[C@@H](CCC(N)=O)C(=O)N[C@@H](CC(=O)O)C(=O)N1CCC[C@H]1C(=O)N[C@@H](CC(N)=O)C(=O)N[C@@H](CC(=O)O)C(=O)N[C@@H](CCC(N)=O)C(=O)N[C@@H](Cc1ccc(O)cc1)C(=O)N[C@@H](CCC(=O)O)C(=O)N1CCC[C@H]1C(=O)N[C@@H](Cc1ccccc1)C(=O)O)C(C)C)C(C)C [copper-64 labelled]	–	BALB/c mice, male, CT26 tumour-bearing, heart	2 h, vehicle-treated	–	tissue uptake	1.53 ± 0.8 %ID/g
CC(C)[C@@H]1NC(=O)CNC(=O)[C@H](CC(N)=O)NC(=O)[C@H](CCCNC(=N)N)NC(=O)[C@H](Cc2ccc(O)cc2)NC(=O)[C@H](C(C)C)NC(=O)[C@@H](NC(=O)[C@@H](NC(=O)[C@H](CC(N)=O)NC(=O)[C@H](Cc2c[nH]c3ccccc23)NC(=O)[C@H](C)NC(=O)[C@H](Cc2ccccc2)NC(=O)CNC(=O)[C@H](CCCCN)NC(=O)[C@H](Cc2ccccc2)NC(=O)[C@H](Cc2ccccc2)NC(=O)[C@H](CCCCN)NC(=O)OCC2c3ccccc3-c3ccccc32)C(C)C)CSSC[C@@H](C(=O)N[C@@H](Cc2c[nH]cn2)C(=O)N[C@@H](CCCNC(=N)N)C(=O)N[C@@H](CCCNC(=N)N)C(=O)N[C@@H](C)C(=O)N[C@@H](CC(N)=O)C(N)=O)NC(=O)[C@H](C(C)C)NC(=O)[C@H](CCCNC(=N)N)NC1=O	–	ICR mice, serum	intraductal mammary, 10 mg/kg, day 5	–	blood urea nitrogen	10.7 ± 41 mmol/L
C=CCN1CCC23c4c5ccc(OC(=O)c6ccc(N)cc6)c4OC2C(=O)CCC3(O)C1C5 (stereo not drawn)	–	rat plasma	0 h, with: digitonin 100 µM	–	remaining compound	102% and 99.1% and 98.3%
CC(C(=O)O)n1nc(Cn2cc3cc(OCC[18F])c(Cl)cc3n2)c2ccccc2c1=O (racemic)	HPLC	nonhuman primate, plasma	60 min post-injection	baseline: plasma radioactivity	parent radiotracer	85%
CCc1nn(C)c2nc(-c3ccc(C(=O)O)cc3)nc(NCc3ccccc3)c12	–	NSG mice	dose not given, day 5	–	body weight	23.1 g and 20.9 g and 20.8 g and 22.3 g
CC(C)(CCCC/C=C/CCCCCC(C)(C)C(=O)O)C(=O)O	–	beagle dog, both sexes	oral, dose not given, 7 h	–	plasma concentration	12100 ng/mL
CN1Cc2cc(Cl)ccc2-n2c(nnc2C2CCN(c3cccc([18F])n3)CC2)C1	–	C57BL/6 mouse male, testis	intravenous, dose not given, 30 min, with: blocking agent 10 mg/kg	–	tissue uptake	1.44 ± 0.53 %ID/g
CCCCC[C@H]1C(=O)N[C@H](C)C(=O)N(C)[C@@H](CCCCC)C(=O)N(C)[C@H](C)C(=O)N(C)[C@@H](CCCCC)C(=O)N[C@H](C)C(=O)N(C)[C@@H](CCCCC)C(=O)N(C)[C@H](C)C(=O)N1C	PAMPA, HPLC-UV	–	500 µM, pH 7.4	–	log Papp	-5.67 ± 0.04
CC(C)N1CCCCC1C(=O)NC(Cc1ccc(-c2ccccc2)cc1)B(O)O (stereo not drawn)	–	Caco-2	–	–	Papp A→B	4.6 ×10⁻⁶ cm/s
C(#Cc1cncc(OC[C@@H]2CCN2)c1)c1ccccc1	–	male Sprague-Dawley rat, plasma	oral, 75 mg/kg, 1 h	–	concentration	390 ng/mL

Some of these lines once more:
Structure (SMILES)	test	test system	conditions	how to read	endpoint	result
CC(CCC(=O)NCC(=O)O)C1CCC2C3C(O)CC4CC(OC5OC(C(=O)O)C(O)C(O)C5O)CCC4(C)C3CCC12C (stereo not drawn)	–	women, C/C genotype, plasma	dose not given, geometric mean	–	glucuronide to parent ratio	0.41
C[C@H](O)[C@@H](NC(=O)[C@H]1CCCN1C(=O)[C@@H](CCCCN)NC(=O)[C@@H](CO)NC(=O)[C@@H](Cc1ccc(O)cc1)NC(=O)[C@@H](CC(N)=O)NC(=O)CCOCCOCCOCCNC(=O)CN1CCN(CC(=O)O)CCN(CC(=O)O)CCN(CC(=O)O)CC1)C(=O)N[C@H](CC(=O)O)C(=O)N[C@H](CCCNC(=N)N)C(=O)N[C@H](CCC(N)=O)C(=O)N[C@H](Cc1ccc(O)cc1)C(=O)N[C@H](Cc1c[nH]cn1)C(=O)N[C@H](Cc1ccccc1)C(N)=O [copper-64 labelled]	–	C57BL/6J mice, kidney	intravenous, 1.85 MBq, 0.6667 h, radiolabelled	–	tissue uptake	29.3 ± 1.05 %ID/g
